Results from different studies.
Compare with care: the assays were run in different laboratories. ± gives the spread as reported.

| SMILES | test | system | setting | scale | measurement | result |
| --- | --- | --- | --- | --- | --- | --- |
| CCCCCCCCCCC(=O)O[C@H]1CC[C@H]2[C@H]3[C@H]([C@@H](C)C[C@]12C)[C@H]1CCC(=O)C=C1C[C@H]3C |  | human serum | 300 ng/mL, NaF 50.0 mg/mL |  | DMA level | not detected |
| CN/C(=N\[N+](=O)[O-])NCc1cnc(Cl)s1 |  | soil | 56 days, nominal 0.37 |  | concentration | 0.2 mg/kg dry soil |
| COc1cc2c(Oc3ccc4[nH]c(C)cc4c3F)ccnc2cc1OCC1(N)CC1 |  | paediatric recurrent refractory sarcoma | 10 mg |  | grade 1 or 2 influenza-like symptoms | 25% |
| C=C1C[C@H]2[C@@H]3CC[C@H](O[C@@H]4O[C@H](C(=O)O)[C@@H](O)[C@H](O)[C@H]4O)[C@@]3(C)CC[C@@H]2[C@@]2(C)C=CC(=O)C=C12 |  | human, postmenopausal women, serum | dose not given, GSTA1 genotype effect |  | serum level | no effect |
| CCCCCn1nc(C(=O)Nc2cccc3ccccc23)c2ccccc21 |  | human liver microsomes | scaled to whole liver |  | scaled intrinsic clearance | 469 mL/min/kg |
| C#Cc1ccc2c(c1)C(c1ccccn1)=NCc1c(-c3cnco3)ncn1-2.Cl | shake flask | 50 mM phosphate buffer | 24 h, pH 5, 25 °C |  | solubility | 3300 µg/mL |
| CCN(CC)C(=O)[C@@H]1C=C2c3cccc4[nH]cc(c34)C[C@H]2N(C)C1 | measured: hot flashes | healthy volunteers | dose not given, 0 to 12 h | reference: placebo, direction not given | List of Complaints score | 2 |
| Cc1ncc2n1-c1ccc(Cl)cc1C(c1ccccc1F)=NC2 |  | wild-type mice, plasma | intravenous, 0.3 mg/kg, vehicle pretreatment 3 days |  | MRT | 36.4 ± 3.6 min |
| COc1cccc(C2(O)CCCCC2CN(C)C)c1 (stereo not shown) | joint PK model | human, whole blood | oral, dose not given, two-compartment metabolite model |  | peripheral volume | 0.213 L |
| O=C1c2c(O)c(=O)ccn2N([C@@H]2c3ccccc3SCc3c2ccc(F)c3F)[C@@H]2COCCN12 |  | BALB/c mice, plasma | oral, 1.5 mg/kg baloxavir marboxil, 8 h |  | plasma concentration | 3.35 ng/mL |

Repeated from above:
| SMILES | test | system | setting | scale | measurement | result |
| --- | --- | --- | --- | --- | --- | --- |
| CCN(CC)C(=O)[C@@H]1C=C2c3cccc4[nH]cc(c34)C[C@H]2N(C)C1 | measured: hot flashes | healthy volunteers | dose not given, 0 to 12 h | reference: placebo, direction not given | List of Complaints score | 2 |
